{"data": "Measured values from different studies", "cell line": "HeLa", "note": "Lines come from different studies, so protocols differ. Values joined by “and” are separate records of one study, mostly repeats; a detail may differ."}
{"Structure (SMILES)": "CC(C)(C)c1ccc([C@H](O)C[C@H](CO)NC(=O)CCCCCOc2ccc3ccccc3c2)cc1", "conditions": "1 µM, lipidomics treatment", "endpoint": "living cells", "result": "95% and 92%"}
{"Structure (SMILES)": "N=C(N)NCCC[C@@H](NC(=O)[C@@H](CCCNC(=N)N)NC(=O)[C@@H](CCCNC(=N)N)NC(=O)[C@@H](CCCNC(=N)N)NC(=O)[C@@H](CCCNC(=N)N)NC(=O)[C@@H](CCCNC(=N)N)NC(=O)[C@@H](CCCNC(=N)N)NC(=O)[C@@H](CCCNC(=N)N)NC(=O)[C@@H](CCCNC(=N)N)NC(=O)[C@@H](CCCNC(=N)N)NC(=S)Nc1ccc2c(c1)C(=O)OC21c2ccc(O)cc2Oc2cc(O)ccc21)C(=O)O", "endpoint": "intracellular stability", "result": "stable"}
{"Structure (SMILES)": "CCCCCCCCCCCC1CC(=O)N[C@@H](CO)C(=O)N[C@H](CO)C(=O)N[C@H](C)C(=O)N(C)[C@@H](C(C)C)C(=O)N[C@H](CO)C(=O)N[C@H](CCCCN)C(=O)N[C@H](CO)C(=O)N[C@@H](CCCCN)C(=O)O1 (stereo partly shown)", "test": "MTT", "conditions": "3.2 mg", "endpoint": "survival", "result": "116%"}
{"Structure (SMILES)": "CN(C)c1ccc(-c2nc3ccccc3n2CCCOc2ccccc2)cc1", "test": "cell growth or viability, ATP luminescence", "conditions": "72 h", "endpoint": "IC50", "result": "> 5.26 µM"}
{"Structure (SMILES)": "CCCCCCc1cccc([C@H](O)C[C@H](CO)NC(=O)CCCCCOc2ccc3ccccc3c2)c1", "conditions": "1 µM, lipidomics treatment", "endpoint": "living cells", "result": "91% and 84% and 94%"}
{"Structure (SMILES)": "O=C(O)CC[C@H](NC(=O)[C@H](CCC(=O)O)NC(=O)[C@H](CCC(=O)O)NC(=O)[C@H](CCC(=O)O)NC(=O)[C@H](CCC(=O)O)NC(=O)CNC(=O)[C@H](CCC(=O)O)NC(=O)CNC(=O)[C@H](CCC(=O)O)NC(=O)[C@@H](Cc1ccccc1)NC(=O)[C@@H](Cc1ccccc1)NC(=O)Cc1ccc2ccccc2c1)C(=O)O", "test": "MTT", "conditions": "400 µM, 3 days", "endpoint": "viability", "result": "~90%"}
{"Structure (SMILES)": "CC[C@H](C)[C@H](NC(=O)[C@H](C)NC(=O)[C@H](CCCCN)NC(=O)[C@H](CCCCN)NC(=O)[C@@H](N)CCCNC(=N)N)C(=O)N[C@@H](CCCCN)C(=O)N[C@@H](CC(C)C)C(=O)N[C@H](C(=O)N[C@@H](CCCCN)C(=O)N[C@@H](CCCCN)C(=O)N[C@@H](CC(C)C)C(=O)N[C@H](C(=O)N[C@@H](CCCCN)C(=O)N[C@@H](CCCCN)C(=O)N[C@@H](CC(C)C)C(=O)N[C@@H](CCCCN)C(=O)N[C@@H](CCCCN)C(=O)N[C@@H](C)C(=O)N[C@@H](CC(C)C)C(=O)N[C@@H](CCCCN)C(=O)O)C(C)C)C(C)C", "test": "cell growth or viability, MTT", "conditions": "32 µg/mL", "endpoint": "viability", "result": "74.7%"}
{"Structure (SMILES)": "Cc1ccn2c(-c3csc(Nc4ccccn4)n3)c(C)nc2c1", "test": "cell growth or viability, ATP luminescence", "conditions": "72 h", "endpoint": "IC50", "result": "> 10 µM"}
{"Structure (SMILES)": "CCCCCCCCCCCCCC(=O)N[C@H]1C(=O)N[C@@H](CN)C(=O)N[C@@H](CO)C(=O)N[C@@H](Cc2ccc(O)cc2)C(=O)O[C@H]1C", "test": "MTT", "conditions": "32 mg", "endpoint": "survival", "result": "103%"}
{"Structure (SMILES)": "CC(C)=CCc1c(O)cc2c(c1O)C(=O)CC(c1ccc(O)cc1)O2 (stereo not shown)", "test": "cytotoxicity, MTT", "conditions": "48 h, together with: S9 fraction", "endpoint": "log IC50", "result": "1.45 log µM"}
{"note": "For quick reference, copied from above:"}
{"Structure (SMILES)": "N=C(N)NCCC[C@@H](NC(=O)[C@@H](CCCNC(=N)N)NC(=O)[C@@H](CCCNC(=N)N)NC(=O)[C@@H](CCCNC(=N)N)NC(=O)[C@@H](CCCNC(=N)N)NC(=O)[C@@H](CCCNC(=N)N)NC(=O)[C@@H](CCCNC(=N)N)NC(=O)[C@@H](CCCNC(=N)N)NC(=O)[C@@H](CCCNC(=N)N)NC(=O)[C@@H](CCCNC(=N)N)NC(=S)Nc1ccc2c(c1)C(=O)OC21c2ccc(O)cc2Oc2cc(O)ccc21)C(=O)O", "endpoint": "intracellular stability", "result": "stable"}
